{"data": "Assay results collected from several papers", "note": "Each numbered part is a random draw from the data of one study; scales do not carry over between parts."}
{"data": "Block 1", "target": "Probable WRKY transcription factor 33, N-terminal DNA-binding domain (WRKY33, Arabidopsis thaliana, UniProt Q8S8P5, residues 169-264)", "technique": "DNA-protein interaction ELISA", "form": "double-stranded DNA, one strand shown", "sample": "in vitro, bacterial lysate", "tested at": "not given", "setting": "whole dsDNA probe, crude lysate protein", "relative to": "highest signal in screen", "reading": "higher = stronger binding", "Residues (chain)": "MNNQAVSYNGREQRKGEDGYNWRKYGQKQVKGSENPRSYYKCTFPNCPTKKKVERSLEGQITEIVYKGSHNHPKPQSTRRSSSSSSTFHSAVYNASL"}
{"Strand": "AAAAAAAGGGTGCTATTCGTCGACACAAAA", "relative absorbance": "21.5 % of maximum"}
{"Strand": "AAAAAAGTCGTCACGCACGTGAATACAAAA", "relative absorbance": "37.1 % of maximum"}
{"Strand": "AAAAAATTACTATTACACACTTGGGGAAAA", "relative absorbance": "23.2 % of maximum"}
{"Strand": "AAAAAACGCCTTATGCCTCCCGCTCGAAAA", "relative absorbance": "32.3 % of maximum"}
{"Strand": "AAAAAAGGTAGTCACATTACGAGGGTAAAA", "relative absorbance": "16.5 % of maximum"}
{"Strand": "AAAAAATTTTGTGGTGTTTCGCCACCAAAA", "relative absorbance": "20.6 % of maximum"}
{"Strand": "AAAAAAGGGCGAGCGCTGGATCCACAAAA", "relative absorbance": "22.9 % of maximum"}
{"Strand": "AAAAAAATCATCCTATTGTTGCTGTCAAAA", "relative absorbance": "11.8 % of maximum"}
{"Strand": "AAAAAAGGGCCCACTATCGACGTCAAAA", "relative absorbance": "21.5 % of maximum"}
{"Strand": "AAAAAAAGTTTGACCTTGGCGTTCGTAAAA", "relative absorbance": "74.4 % of maximum"}
{"Strand": "AAAAAATTGGCACACATGATCTCGGGAAAA", "relative absorbance": "20 % of maximum"}
{"Strand": "AAAAAATCAAAACAACGATGCCGTTAAAAA", "relative absorbance": "22.4 % of maximum"}
{"Strand": "AAAAAACGCCGGACAATCAGGCGCTCAAAA", "relative absorbance": "19.6 % of maximum"}
{"Strand": "AAAAAATGGAAGGAGAGGGATGAAATAAAA", "relative absorbance": "20.5 % of maximum"}
{"Strand": "AAAAAAACGCTCAAGTCTATCAGTAGAAAA", "relative absorbance": "21.9 % of maximum"}
{"Strand": "AAAAAAGTCCATAAACTAAATTGGATAAAA", "relative absorbance": "23.5 % of maximum"}
{"Strand": "AAAAAATCCACGACTCAGCAGCTCTTAAAA", "relative absorbance": "21.6 % of maximum"}
{"Strand": "AAAAAACCGATCATCACATATCACTGAAAA", "relative absorbance": "21.3 % of maximum"}
{"Strand": "AAAAAATCATTTTATTTTGCCTTTCTAAAA", "relative absorbance": "23.7 % of maximum"}
{"Strand": "AAAAAAGGTCCAGTCCACGTCATCAGAAAA", "relative absorbance": "28.1 % of maximum"}
{"Strand": "AAAAAATCGCGAACGTACGTCCGCGGAAAA", "relative absorbance": "21.2 % of maximum"}
{"Strand": "AAAAAACGGTCGCGATCGTTAATGATAAAA", "relative absorbance": "13.2 % of maximum"}
{"Strand": "AAAAAATATCATTGTTACCGTTGCTAAAAA", "relative absorbance": "25.6 % of maximum"}
{"Strand": "AAAAAACCAGTCTACACCGCTGTAGGAAAA", "relative absorbance": "29.6 % of maximum"}
{"Strand": "AAAAAAGGCGTCTGACTGTAACTCGTAAAA", "relative absorbance": "22.8 % of maximum"}
{"data": "Block 2", "target": "Histone acetyltransferase KAT6A, winged helix 2, GST fusion (KAT6A, Homo sapiens, UniProt Q92794, residues 85-181)", "technique": "protein binding microarray", "form": "double-stranded DNA, one strand shown", "sample": "in vitro", "tested at": "not given", "setting": "8-mer, flanks averaged, mean of 2 arrays, mostly near background", "relative to": "not given", "reading": "higher = stronger binding", "Residues (chain)": "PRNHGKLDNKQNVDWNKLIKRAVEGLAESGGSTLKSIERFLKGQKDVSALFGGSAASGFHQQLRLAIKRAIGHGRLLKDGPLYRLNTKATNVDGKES"}
{"Strand": "GACTCACC", "E-score": -0.171}
{"Strand": "CTCAACAC", "E-score": 0.107}
{"Strand": "ATACTCTC", "E-score": -0.0383}
{"Strand": "CCGAGAGC", "E-score": 0.0761}
{"Strand": "CTCGCAAA", "E-score": 0.0262}
{"Strand": "CCCGTCCG", "E-score": -0.132}
{"Strand": "GTTAAGCA", "E-score": -0.0496}
{"Strand": "AATAGGCG", "E-score": 0.168}
{"Strand": "TCTTCAAA", "E-score": 0.0851}
{"Strand": "ACAAACAG", "E-score": 0.0114}
{"Strand": "CCCCGCTA", "E-score": 0.116}
{"Strand": "AATGGGAA", "E-score": -0.0849}
{"Strand": "GAATCTTA", "E-score": -0.0171}
{"Strand": "GCTGGCAC", "E-score": 0.0404}
{"Strand": "CATCCGCC", "E-score": 0.221}
{"Strand": "TCCCGAAA", "E-score": -0.113}
{"Strand": "AGTAGACT", "E-score": -0.105}
{"data": "Block 3", "target": "Prothrombin, mature alpha-thrombin (F2, Homo sapiens, UniProt P00734)", "technique": "aptamer microarray, sandwich", "form": "DNA with 2'F-ANA", "sample": "in vitro", "tested at": "200 nM", "setting": "whole 15-mer aptamer, many near background", "together with": "Cy3 exosite-II aptamer, 400 nM", "reading": "higher = stronger binding", "strand": "GGTTGGTGTGGTTGG"}
{"Modification": "2'F-ANA at 2 3 9 10 11 12 14", "mean fluorescence intensity": "291 a.u."}
{"Modification": "2'F-ANA at 1 3 5 6 8 11 13", "mean fluorescence intensity": "56.1 a.u."}
{"Modification": "2'F-ANA at 3 4 6 8 9", "mean fluorescence intensity": "637 a.u."}
{"Modification": "2'F-ANA at 2 4 5 6 7 8 10 11 12 15", "mean fluorescence intensity": "48.1 a.u."}
{"Modification": "2'F-ANA at 1 4 5 8 14 15", "mean fluorescence intensity": "49.9 a.u."}
{"Modification": "2'F-ANA at 2 10 12 13 15", "mean fluorescence intensity": "167 a.u."}
{"Modification": "2'F-ANA at 1 3 6 8 9 10 14 15", "mean fluorescence intensity": "62.1 a.u."}
{"Modification": "2'F-ANA at 8 9 10 11 12 13 14 15", "mean fluorescence intensity": "116 a.u."}
{"Modification": "2'F-ANA at 1 3 5 6 8 10 12 14", "mean fluorescence intensity": "129 a.u."}
{"Modification": "2'F-ANA at 1 3 4 7 10 12 14 15", "mean fluorescence intensity": "56.4 a.u."}
{"Modification": "2'F-ANA at 5 7 8 10 11", "mean fluorescence intensity": "48.4 a.u."}
{"Modification": "2'F-ANA at 1 3 5 6 7 12 14", "mean fluorescence intensity": "48 a.u."}
{"Modification": "2'F-ANA at 4 6 7 8 9 12 13 15", "mean fluorescence intensity": "346 a.u."}
{"Modification": "2'F-ANA at 1 4 5 6 7 11 13", "mean fluorescence intensity": "50.4 a.u."}
{"Modification": "2'F-ANA at 5 6 8 11 12 13", "mean fluorescence intensity": "109 a.u."}
{"Modification": "2'F-ANA at 1 8 9 11 14 15", "mean fluorescence intensity": "55.9 a.u."}
{"Modification": "2'F-ANA at 1 2 3 5 6 8 13 14", "mean fluorescence intensity": "49.2 a.u."}
{"Modification": "2'F-ANA at 1 2 4 5 6 7 11 12 13", "mean fluorescence intensity": "119 a.u."}
{"Modification": "2'F-ANA at 1 2 6 7 9 10 11 15", "mean fluorescence intensity": "54.4 a.u."}
{"Modification": "2'F-ANA at 2 3 6 9 12", "mean fluorescence intensity": "1030 a.u."}
{"Modification": "2'F-ANA at 3 4 5 7 11", "mean fluorescence intensity": "84.9 a.u."}
{"Modification": "2'F-ANA at 1 4 8 10 12 14", "mean fluorescence intensity": "46.8 a.u."}
{"Modification": "2'F-ANA at 4 5 8 10 12 14 15", "mean fluorescence intensity": "54.5 a.u."}
{"data": "Block 4", "target": "RNA binding protein fox-1 homolog 2, RRM domain, GST-SBP tag (RBFOX2, Homo sapiens, UniProt O43251-10, residues 100-194)", "technique": "RNA Bind-n-Seq", "form": "RNA", "sample": "in vitro", "tested at": "365 nM", "setting": "natural RNA segment, single round, ends assumed", "relative to": "no-protein control", "reading": "higher = stronger binding", "Target sequence (chain)": "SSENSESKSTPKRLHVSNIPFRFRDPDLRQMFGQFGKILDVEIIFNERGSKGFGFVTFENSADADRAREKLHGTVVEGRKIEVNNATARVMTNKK"}
{"Strand": "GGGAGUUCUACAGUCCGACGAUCCACCUAGAGCUGCACAGGGGGCUUUCGGCACUUCCCUGGAACAGUUGUAGGCCUGGCCUUUGCCCAGGCAAUGGACCUUUGAUGCGAGGAACCUUGCUACUUCCCCACUGUGGAAUUCUCGGGUGCCAA", "RBNS enrichment (R)": 0.27}
{"Strand": "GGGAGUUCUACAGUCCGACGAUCAGUGUCAAGCAUGGGAGCUAAAAUGAGUAAUCUGUGUUACCACACUCUUAGUACUAUCAUUUUUUUUUUUGAGACAGGGUUUCUCUGUAUAGCCCUGGCUGUCCUGGAACUGGAAUUCUCGGGUGCCAA", "RBNS enrichment (R)": 3.84}
{"Strand": "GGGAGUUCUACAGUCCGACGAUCGCCGGAUGCAGUGCAGCCAUAUAUUUAUCAGAAAGGUUUUAGAGUAUGUCUAUUGAUCCAUUUCUAGAAAAGAUGGUCGUAACUUAAGGAGUGAUAUUUGUGGAGGAGGAUGGAAUUCUCGGGUGCCAA", "RBNS enrichment (R)": 1.37}
{"Strand": "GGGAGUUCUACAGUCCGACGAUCCCUGUUGGCCAAGGAGAAUUUCUGCGGUGGGAGGCAGUGCUCUGCUAGUCAGGAUUGAUAAACAGCUGGGCACACCGAAACAGUGUACCAACGAAUUCACCAACCAGGGGUGGAAUUCUCGGGUGCCAA", "RBNS enrichment (R)": 0.292}
{"Strand": "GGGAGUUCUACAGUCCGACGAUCAAACCAACAAUGAAUUCAAUAUACCAGGAAAUAGAUUGUUAGUAGGGAAUGGCAUUAAAGGAAAAAAAAAUUAGAUAAGAUGCAUUCAAGGAAUAAUUACUUUCACUCUGUGGAAUUCUCGGGUGCCAA", "RBNS enrichment (R)": 0.568}
{"Strand": "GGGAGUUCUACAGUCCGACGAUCAUCCUGUGUUUUCAGGCAGCAGUAUGCUUACUUUAAUCUCAUUCGUUCUGUGGCUAGGAUUGCUAGAGGGUCCUGCCUAUGUGAUUUGCUUUAGGAGAAGUUAAGAGGUAUGGAAUUCUCGGGUGCCAA", "RBNS enrichment (R)": 1.24}
{"Strand": "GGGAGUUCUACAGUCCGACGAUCAAUGGAGAUUUAAGCACAAUCCUAGCAAGUAAGUUUUAAGAAUACUGAAUAUUAUACAUUAUUGUAACAUGAACCUAAAAUUAAUUUAACAGGGCCCAAAUUCAUAGGAAUGGAAUUCUCGGGUGCCAA", "RBNS enrichment (R)": 0.471}
{"Strand": "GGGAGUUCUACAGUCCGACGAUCUGAUGCCUGGUGGCUUACCGGACUUCUCAGUCAAUUCUGAAAGGUAUAUUUUGGGCACACAGUGAAAAGUGAGCCAUAGAUGGAGCUUCUUGCUGAUCACAUUGACACUGUGGAAUUCUCGGGUGCCAA", "RBNS enrichment (R)": 0.534}
{"note": "For quick reference, copied from above (block 1):"}
{"Strand": "AAAAAAGGGCGAGCGCTGGATCCACAAAA", "relative absorbance": "22.9 % of maximum"}
{"Strand": "AAAAAAAGTTTGACCTTGGCGTTCGTAAAA", "relative absorbance": "74.4 % of maximum"}
{"Strand": "AAAAAATGGAAGGAGAGGGATGAAATAAAA", "relative absorbance": "20.5 % of maximum"}
{"Strand": "AAAAAACCAGTCTACACCGCTGTAGGAAAA", "relative absorbance": "29.6 % of maximum"}
{"Strand": "AAAAAAGGTCCAGTCCACGTCATCAGAAAA", "relative absorbance": "28.1 % of maximum"}
{"Strand": "AAAAAATATCATTGTTACCGTTGCTAAAAA", "relative absorbance": "25.6 % of maximum"}
{"Strand": "AAAAAATCCACGACTCAGCAGCTCTTAAAA", "relative absorbance": "21.6 % of maximum"}
